Experimental data gathered from unrelated publications.
Protocols differ between the studies behind these lines.
PFF0160c E182D: Dihydroorotate dehydrogenase (quinone), mitochondrial (PFF0160c, Plasmodium falciparum, UniProt Q08210, E182D)
Chain of UniProt Q12809 (whole entry, looked up): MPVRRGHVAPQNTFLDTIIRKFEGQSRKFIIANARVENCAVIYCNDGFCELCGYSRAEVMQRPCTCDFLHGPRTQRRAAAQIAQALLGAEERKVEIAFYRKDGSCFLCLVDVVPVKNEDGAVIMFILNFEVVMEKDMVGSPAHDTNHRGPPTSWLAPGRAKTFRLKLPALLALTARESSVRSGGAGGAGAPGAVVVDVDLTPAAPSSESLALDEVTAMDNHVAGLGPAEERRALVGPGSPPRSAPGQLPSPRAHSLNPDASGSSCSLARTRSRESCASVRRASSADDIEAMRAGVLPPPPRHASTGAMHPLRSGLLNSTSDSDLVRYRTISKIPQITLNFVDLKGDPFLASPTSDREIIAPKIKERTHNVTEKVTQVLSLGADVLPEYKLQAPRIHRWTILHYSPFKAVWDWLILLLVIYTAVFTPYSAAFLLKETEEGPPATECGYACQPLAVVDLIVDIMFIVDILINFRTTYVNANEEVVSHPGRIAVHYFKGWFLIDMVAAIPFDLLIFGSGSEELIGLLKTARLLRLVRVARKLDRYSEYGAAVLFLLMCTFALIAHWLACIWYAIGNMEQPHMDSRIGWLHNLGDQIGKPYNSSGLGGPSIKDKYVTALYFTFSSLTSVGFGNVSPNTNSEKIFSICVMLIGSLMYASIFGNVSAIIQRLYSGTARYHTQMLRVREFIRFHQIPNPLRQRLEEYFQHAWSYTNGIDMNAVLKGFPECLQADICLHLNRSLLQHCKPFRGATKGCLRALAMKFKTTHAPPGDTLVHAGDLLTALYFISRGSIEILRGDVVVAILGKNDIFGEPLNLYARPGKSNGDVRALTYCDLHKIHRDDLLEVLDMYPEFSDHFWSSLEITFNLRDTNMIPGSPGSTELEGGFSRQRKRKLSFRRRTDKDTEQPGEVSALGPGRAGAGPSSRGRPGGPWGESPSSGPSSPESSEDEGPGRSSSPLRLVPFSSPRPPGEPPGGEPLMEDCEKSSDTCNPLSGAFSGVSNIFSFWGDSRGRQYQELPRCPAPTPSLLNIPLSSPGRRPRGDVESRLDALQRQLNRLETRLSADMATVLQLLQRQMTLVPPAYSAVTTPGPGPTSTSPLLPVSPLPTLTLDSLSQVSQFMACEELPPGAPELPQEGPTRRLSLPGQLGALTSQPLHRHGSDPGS
Chain of UniProt Q9H4B4 (whole entry, looked up): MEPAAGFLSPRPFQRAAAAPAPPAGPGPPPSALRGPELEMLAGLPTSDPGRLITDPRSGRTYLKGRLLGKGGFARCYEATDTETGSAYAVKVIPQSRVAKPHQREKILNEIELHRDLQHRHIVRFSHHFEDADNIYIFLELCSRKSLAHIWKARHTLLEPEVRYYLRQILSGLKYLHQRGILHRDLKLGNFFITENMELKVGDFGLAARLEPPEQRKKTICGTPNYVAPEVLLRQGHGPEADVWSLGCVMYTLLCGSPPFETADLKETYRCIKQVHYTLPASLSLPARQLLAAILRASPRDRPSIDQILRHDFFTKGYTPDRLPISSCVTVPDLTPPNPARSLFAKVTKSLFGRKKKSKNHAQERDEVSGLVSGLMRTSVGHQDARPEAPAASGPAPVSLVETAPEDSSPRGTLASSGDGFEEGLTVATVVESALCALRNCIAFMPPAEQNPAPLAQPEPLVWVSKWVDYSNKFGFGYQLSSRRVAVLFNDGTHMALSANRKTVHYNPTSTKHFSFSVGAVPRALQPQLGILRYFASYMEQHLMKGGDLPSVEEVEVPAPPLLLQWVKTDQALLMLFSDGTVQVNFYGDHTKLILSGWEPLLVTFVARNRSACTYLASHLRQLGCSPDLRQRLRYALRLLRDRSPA
Chain of UniProt P00519 (whole entry, unmodified, looked up): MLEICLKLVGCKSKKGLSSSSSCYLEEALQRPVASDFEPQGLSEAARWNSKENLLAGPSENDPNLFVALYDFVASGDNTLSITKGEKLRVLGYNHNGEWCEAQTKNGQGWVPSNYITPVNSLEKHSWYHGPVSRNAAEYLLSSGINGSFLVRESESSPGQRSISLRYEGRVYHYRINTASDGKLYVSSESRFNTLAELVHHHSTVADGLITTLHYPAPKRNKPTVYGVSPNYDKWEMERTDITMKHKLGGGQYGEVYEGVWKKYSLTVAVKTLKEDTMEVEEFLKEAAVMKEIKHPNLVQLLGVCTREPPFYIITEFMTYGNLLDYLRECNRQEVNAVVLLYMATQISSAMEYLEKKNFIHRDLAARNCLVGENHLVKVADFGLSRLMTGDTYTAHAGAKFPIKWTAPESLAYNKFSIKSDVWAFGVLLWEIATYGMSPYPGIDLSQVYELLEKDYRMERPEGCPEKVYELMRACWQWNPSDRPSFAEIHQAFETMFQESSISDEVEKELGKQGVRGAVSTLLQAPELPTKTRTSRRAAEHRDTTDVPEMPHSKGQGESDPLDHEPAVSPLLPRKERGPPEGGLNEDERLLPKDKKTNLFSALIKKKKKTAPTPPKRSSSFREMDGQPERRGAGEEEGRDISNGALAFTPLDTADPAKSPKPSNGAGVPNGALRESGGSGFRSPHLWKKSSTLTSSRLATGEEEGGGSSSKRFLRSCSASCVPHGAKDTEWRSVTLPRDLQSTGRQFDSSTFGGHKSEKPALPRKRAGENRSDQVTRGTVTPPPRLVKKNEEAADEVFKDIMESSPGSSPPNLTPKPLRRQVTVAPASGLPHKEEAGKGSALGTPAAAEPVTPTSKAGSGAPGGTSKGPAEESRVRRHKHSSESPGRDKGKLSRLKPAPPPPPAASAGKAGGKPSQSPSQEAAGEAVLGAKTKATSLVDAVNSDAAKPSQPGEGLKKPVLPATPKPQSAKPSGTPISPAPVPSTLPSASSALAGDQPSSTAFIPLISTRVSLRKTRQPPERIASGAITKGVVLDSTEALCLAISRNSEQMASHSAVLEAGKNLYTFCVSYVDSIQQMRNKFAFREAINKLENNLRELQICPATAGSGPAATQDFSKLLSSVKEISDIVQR
Chain of UniProt O75795 (whole entry, looked up): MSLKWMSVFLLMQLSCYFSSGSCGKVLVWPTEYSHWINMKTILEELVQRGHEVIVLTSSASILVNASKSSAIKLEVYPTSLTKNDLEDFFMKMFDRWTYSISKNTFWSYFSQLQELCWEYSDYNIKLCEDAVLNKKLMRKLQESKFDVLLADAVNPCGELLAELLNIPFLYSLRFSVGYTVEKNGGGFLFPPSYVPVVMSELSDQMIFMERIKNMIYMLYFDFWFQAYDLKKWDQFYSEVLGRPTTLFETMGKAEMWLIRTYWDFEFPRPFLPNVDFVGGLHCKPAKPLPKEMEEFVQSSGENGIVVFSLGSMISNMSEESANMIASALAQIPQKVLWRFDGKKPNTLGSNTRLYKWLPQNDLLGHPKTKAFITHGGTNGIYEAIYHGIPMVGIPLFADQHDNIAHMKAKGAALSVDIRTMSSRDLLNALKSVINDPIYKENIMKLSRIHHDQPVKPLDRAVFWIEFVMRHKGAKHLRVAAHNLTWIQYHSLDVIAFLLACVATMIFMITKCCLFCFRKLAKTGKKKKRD

SMILES | tested on | test | system | setting | measurement | value
CC(C)CC(=O)OC[C@H]1O[C@@](C#N)(c2ccc3c(N)ncnn23)[C@H](O)[C@@H]1O | KCNH2 (Homo sapiens, UniProt Q12809) | ion current, inhibitor, patch clamp | HEK293 | 30 µM | inhibition | < 50%
O=C(O)c1cn(Cc2ccc(F)cc2)c2ccccc12 | UGT2B17 (Homo sapiens, UniProt O75795) | enzyme activity, substrate | – | – | Km | 104 µM
[2H]c1c([2H])c([C@]2([2H])CCCN2C(=O)C(C)(C)Oc2ccc3cn[nH]c3c2)c([2H])c([2H])c1C([2H])([2H])[2H] | PLK3 (Homo sapiens, UniProt Q9H4B4) | binding, competition with immobilised ligand | – | 1 µM | remaining binding | 89%
Nc1ncc(-c2nc(N3CCOCC3)nc(N3CCOCC3)n2)c(C(F)F)n1 | EGFR (Homo sapiens, UniProt P00533, L858R/T790M) | cell-free assay, competition with immobilised ligand | – | 10 µM | remaining binding | 74%
N=C(N)NCCC[C@@H](NC(=O)[C@@H](N)Cc1ccccc1)C(=O)N[C@@H](Cc1ccccc1)C(=O)N[C@@H](CCCCN)C(N)=O | – | – | human, plasma | subcutaneous, 25 mg, multiple doses, once daily, patients | Cmax | 1140 ng/mL
C[C@]12CC[C@H]3[C@@H](CC=C4CC(O)CC[C@@]43CO)[C@@H]1CCC2O (stereo partly drawn) | – | – | rat, plasma | intraperitoneal, 20 mg/kg | AUC | 2370 ng·h/mL
Oc1c(C(Nc2ccccn2)c2ccco2)cc(Cl)c2cccnc12 (stereo not drawn) | PFF0160c E182D | enzyme activity, inhibitor, absorbance | – | – | IC50 | > 10000 nM
Nc1c2c(nc3c1C(c1cccc([N+](=O)[O-])c1)c1ccc(OCC(=O)c4ccc(Cl)cc4)cc1O3)CCCC2 (stereo not drawn) | SH-SY5Y | cell growth or viability, MTT | – | 25 µM | viability | 52.8%
COc1ccc([C@@]23Oc4cc(OC)cc(OC)c4[C@@]24NC(C)=N[C@@]4(O)[C@H](C(=O)N(C)OC)[C@H]3c2ccccc2)cc1 | – | metabolic stability | mouse, liver microsomes | – | microsomal CLint | 272 µL/min/mg
Nc1c2c(nc3c1C(c1cccc([N+](=O)[O-])c1)c1ccc(OS(=O)(=O)c4ccc(F)cc4)cc1O3)CCCC2 (stereo not drawn) | SH-SY5Y | cell growth or viability, MTT | – | 100 µM | viability | 39.6%
COc1ccc(C[C@H](NC(=O)[C@H](C)NC(=O)CN2CCOCC2)C(=O)N[C@@H](Cc2ccccc2)C(=O)C2(C)CO2)cc1 (stereo in doubt) | HEK-293T | cell growth or viability, CCK-8 | – | 48 h | CC50 | > 100000 nM
CCCn1c(O)nnc1SCC(=O)Nc1cc(C(F)(F)F)ccc1Cl | PFF0160c E182D | enzyme activity, inhibitor, absorbance | – | – | IC50 | 545 nM
Cn1cc2c3c1C(=O)C(N)=CC3=NCC2 | HEK293 | cell growth or viability, MTT | – | 72 h | CC50 | 2000 nM
Cc1ccc(S(=O)(=O)Oc2ccc3c(c2)Oc2nc4c(c(N)c2C3c2ccc(Cl)c(Cl)c2)CCCC4)cc1 (stereo not drawn) | SH-SY5Y | cell growth or viability, MTT | – | 100 µM | viability | 49.3%
Cc1nn(C)cc1-c1nc2c(N3CCN(Cc4ccc(Cl)cc4)CC3)c(Cl)cnc2[nH]1 | Tyrosine-protein kinase ABL1, phosphorylated (ABL1, Homo sapiens, UniProt P00519, F317I) | binding, competition with immobilised ligand | – | 1 µM | remaining binding | 65%
Nc1c2c(nc3c1C(c1ccc(Cl)c(Cl)c1)c1ccc(OCC(=O)c4ccccc4)cc1O3)CCCC2 (stereo not drawn) | SH-SY5Y | cell growth or viability, MTT | – | 1.6 µM | viability | 69.2%
CC(C)C[C@H](NC(=O)[C@H](Cc1ccccc1)NC(=O)[C@H](Cc1ccccc1)NC(=O)Cc1ccc(-c2ccccc2)cc1)C(=O)N[C@@H](CCCCN)C(=O)N[C@@H](CCCNC(=N)N)C(=O)N[C@H](C(=O)N[C@@H](Cc1c[nH]c2ccccc12)C(=O)N[C@@H](CCCCN)C(=O)N[C@@H](CCCNC(=N)N)C(=O)O)C(C)C | – | metabolic stability, mass spectrometry | human, liver microsomes | 45 min | compound remaining | 21.8%
CCOC(=O)c1c(NC(=O)CNC(C)C)sc2c1CCCCC2 | – | – | male mouse, brain | intraperitoneal, 100 mg/kg, 1 h | concentration | 8020 ng/g

Excerpt of the above:
SMILES | tested on | test | system | setting | measurement | value
COc1ccc([C@@]23Oc4cc(OC)cc(OC)c4[C@@]24NC(C)=N[C@@]4(O)[C@H](C(=O)N(C)OC)[C@H]3c2ccccc2)cc1 | – | metabolic stability | mouse, liver microsomes | – | microsomal CLint | 272 µL/min/mg
Nc1c2c(nc3c1C(c1cccc([N+](=O)[O-])c1)c1ccc(OS(=O)(=O)c4ccc(F)cc4)cc1O3)CCCC2 (stereo not drawn) | SH-SY5Y | cell growth or viability, MTT | – | 100 µM | viability | 39.6%
